# Results collected from several papers.
# Every numbered part comes from another study and shows a few of its results, in no order. Substitutions count along the parent as printed.

# Block 1
# Target: Interferon regulatory factor 5, full length, phosphomimetic (IRF5, Homo sapiens, UniProt Q13568-2, residues 1-514, S451D/S453D/S456D/S462D)
# Technique: protein-binding microarray
# Molecule type: double-stranded DNA, one strand shown
# Matrix: in vitro
# Concentration: 940 nM top
# Setting: 60-bp whole probe
# Added: salmon DNA 0.4 mg/ml
# Baseline: random background probes
# Reading: higher = stronger binding
# Shared flanks, not repeated: GCCTAGCAC … GTCTTGATTCGCTTGACGCTGCTG
Strand,fitted relative affinity [z-score]
GACGGAGTGGGGTTTCGGGACGTGCTA,1.96
GACGGTCCCCTTATCCTGACGTGCTAG,0.439
TTAGATATCGGACTGGATTAGTGCTAG,-0.146
TTAGATATCGGGTTTCGAGTAGTGCTA,2.43
TTAGATATCGGACTGGGTTAGTGCTAG,-0.124
GACGGACTGGACACTGGCGACGTGCTA,-0.674
GACGGTTCCCTTTTCCTGAGGTGCTAG,0.434
CCAGCAGGGTTAGGCTTGCTGTGCTAG,-0.684
ACCTATAGGTTGTTTCTAATAGTGCTA,0.288
GACGGACTGAGTCTCGAGACGTGCTAG,0.342
GATGATCTCAGTATCGAGACGTGCTAG,1.97
TCACCTTGCTTTATGTGACTGTGCTAG,0.295
TTAGGTATCGAATTTCGGTTAGTGCTA,3.75
TTTTTTTTTTTTTTTGTATTGTGCTAG,1.45
TCACTTTTTAAGATCTGACTGTGCTAG,0.283
GTAGGTATCGGTATCGGTTAGTGCTAG,10.4
TCATTTTCCATTTTGTGACTGTGCTAG,1.18
GAGGGACTGGGTTTCGGGACGTGCTAG,2.89
GACGGACTGGACCATCGGGACGTGCTA,-0.772

# Block 2
# Target: ABI1, truncated, D143A, DHFR fusion (Arabidopsis thaliana)
# Technique: DHFR PCA, deep sequencing
# Matrix: yeast
# Setting: methotrexate growth selection, single substitutions
# Added: (+)-ABA 58 µM
# Baseline: wild-type fitted maximum
# Reading: higher = stronger binding
# Starting sequence: PYL1, truncated, DHFR fusion (Arabidopsis thaliana); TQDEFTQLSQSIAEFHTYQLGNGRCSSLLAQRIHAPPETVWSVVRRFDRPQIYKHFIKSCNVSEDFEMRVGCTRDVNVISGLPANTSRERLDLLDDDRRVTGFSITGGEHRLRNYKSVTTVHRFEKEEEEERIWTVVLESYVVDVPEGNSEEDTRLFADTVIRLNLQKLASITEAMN; partner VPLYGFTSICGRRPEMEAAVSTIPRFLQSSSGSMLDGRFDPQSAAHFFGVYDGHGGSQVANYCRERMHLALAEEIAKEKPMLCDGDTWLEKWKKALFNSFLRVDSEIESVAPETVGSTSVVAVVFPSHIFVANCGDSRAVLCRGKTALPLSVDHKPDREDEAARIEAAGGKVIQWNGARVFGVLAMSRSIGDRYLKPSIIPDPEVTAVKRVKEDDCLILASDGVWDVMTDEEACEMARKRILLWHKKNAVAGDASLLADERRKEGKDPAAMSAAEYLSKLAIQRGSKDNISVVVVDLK
Variant,relative binding score [%]
L8I,63.4
T39K,88
R45H,14.3
S80V,-4.26
L82W,32.9
R123L,86
G23F,64.7
L166S,4.5
D144Y,12.8
S42L,63.9
Q7E,93.9
S140Q,7.98
I162W,6.96
V40Y,2.71
R74S,-9.2
C72A,89.7
F124C,90.3
R88S,76.9
T106D,63.7
D144M,37.5

# Block 3
# Target: BATF3, bZIP domain (human)
# Technique: DHFR protein complementation
# Matrix: yeast
# Setting: single substitutions, most at no-binding floor
# Baseline: wild-type JUN-FOS pair
# Reading: higher = stronger binding
# Starting sequence: JUN, bZIP domain (human); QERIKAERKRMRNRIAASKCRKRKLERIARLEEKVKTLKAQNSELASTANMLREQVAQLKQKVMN; partner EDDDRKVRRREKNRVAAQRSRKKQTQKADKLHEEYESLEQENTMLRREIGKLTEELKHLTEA
Variant,binding fitness [natural log]
R53T,-0.00592
T48Q,0.18
A40Y,0.105
T48G,-0.12
T37F,0.19
L31P,0.0326
L59T,0.19
A49K,0.152
S43Y,0.156
V56Y,-0.0478
A40S,0.195

# Block 4
# Target: CEP164, C-terminal peptide (human)
# Technique: DHFR complementation, deep sequencing
# Matrix: yeast
# Setting: single substitutions, model-inferred values
# Baseline: wild type
# Reading: higher = weaker binding
# Starting sequence: PDZK1, PDZ domain 2 (human); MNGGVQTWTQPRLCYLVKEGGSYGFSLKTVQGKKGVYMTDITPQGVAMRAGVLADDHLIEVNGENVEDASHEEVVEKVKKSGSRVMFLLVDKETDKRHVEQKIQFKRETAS; partner HNRVKVYRF
Variant,binding free energy change [kcal/mol]
E64V,0.0109
Q101G,-0.174
E93Y,-0.16
S70L,0.0136
L88E,0.862
I41H,1.5
F25V,1.3
V90E,-0.184
K92I,-0.013
K77G,0.598
T7R,-0.241
E67K,0.303
E76N,0.159
M48Y,-0.22

# Block 5
# Target: Histone acetyltransferase KAT6A, both winged helices, GST fusion (KAT6A, Homo sapiens, UniProt Q92794, residues 1-181)
# Technique: protein binding microarray
# Molecule type: double-stranded DNA, one strand shown
# Matrix: in vitro
# Concentration: not given
# Setting: 8-mer, flanks averaged, mean of 2 arrays, mostly near background
# Baseline: not given
# Reading: higher = stronger binding
# Target sequence (chain): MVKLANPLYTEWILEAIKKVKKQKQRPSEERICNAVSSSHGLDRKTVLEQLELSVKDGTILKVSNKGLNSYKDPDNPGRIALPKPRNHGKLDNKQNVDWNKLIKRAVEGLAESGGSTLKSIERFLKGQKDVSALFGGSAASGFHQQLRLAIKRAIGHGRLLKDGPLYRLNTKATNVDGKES
Strand,E-score
AAGCATCT,-0.0759
GTACGTAC,0.0206
CAAGTCCG,0.0824
GTTCAAGA,0.0171
CCAAGTAA,-0.0344
ATCATGTG,-0.114
AATTGAAA,-0.106
TCAATCAA,0.115
CTCGGTCC,-0.0554
ACTCAGAG,-0.0611
GTAGCGCA,0.244
ACGTGGTA,-0.126
ACATCGAT,-0.106
AACAGCGC,0.308
CCCCTATC,-0.235
GCCGAGTA,0.199
CCCTGTAA,-0.153

# Block 6
# Target: CCND3, cyclin fold, Cln2 fusion (human)
# Technique: yeast growth competition, sequencing
# Matrix: yeast
# Setting: weak parent motif
# Baseline: not given
# Reading: higher = stronger binding
# Starting sequence: CDKN1B docking peptide (human); PSACRNLFGPVDH
Variant,normalised enrichment score
PSACRNCFGPVDH [L7C],-0.00452
PNACRNLFGPVDH [S2N],0.0864
PSACRNLFSPVDH [G9S],0.0912
PSACRNLFMPVDH [G9M],0.105
PSACRLLFGPVDH [N6L],0.129
PSACWNLFGPVDH [R5W],0.0821
PYACRNLFGPVDH [S2Y],0.0786
PSACRNLFGPKDH [V11K],0.0994
PSACRNLFGPGDH [V11G],0.132
PSACRNLFGFVDH [P10F],0.133
PSACRNLFGPVEH [D12E],0.0641
PSACRNDFGPVDH [L7D],0.0912
PSACRNFFGPVDH [L7F],0.149
PMACRNLFGPVDH [S2M],0.143
PSACRNLFGPIDH [V11I],0.192
YSACRNLFGPVDH [P1Y],0.168
PSACRNLFGPWDH [V11W],0.147
PSACRNLFGPVVH [D12V],0.151
PSACRNLFGPVDL [H13L],0.111
PSACRNLFGPVDM [H13M],0.0783
PSFCRNLFGPVDH [A3F],0.175
PSACRNLFNPVDH [G9N],0.134
PSACRNLGGPVDH [F8G],0.0551
PSAMRNLFGPVDH [C4M],0.0568
PSRCRNLFGPVDH [A3R],0.13

# Other studies, line by line
Substance,target,assay,test system,setting,how to read,measurement,value
"PhoQ, residues 284 288 289 292 302 303 GLASVI","PhoP, residues 12 14 15 18 19 DLLYY (Escherichia coli, UniProt P23836)","Sort-seq, refers to: YFP reporter",E. coli,"PhoQ-PhoP variant library, added: 10 µM Mg2+","baseline: high Mg2+ state, higher = stronger signaling",fold induction,1.56

# Repeated from above (block 6):
Variant,normalised enrichment score
PSACRNCFGPVDH [L7C],-0.00452
PNACRNLFGPVDH [S2N],0.0864
PSACRNLFSPVDH [G9S],0.0912
PSACRNLFMPVDH [G9M],0.105
PSACRLLFGPVDH [N6L],0.129
PSACWNLFGPVDH [R5W],0.0821
PYACRNLFGPVDH [S2Y],0.0786
PSACRNLFGPKDH [V11K],0.0994
PSACRNLFGPGDH [V11G],0.132
PSACRNLFGFVDH [P10F],0.133
PSACRNLFGPVEH [D12E],0.0641
